Published values collected from several papers.
Compare with care: the assays were run in different laboratories. ± marks the error that the study gave.

SMILES	target or system	test	test system	setting	how to read	quantity	result
CC(=O)N1CCC(C(=O)N2CCN3C(=O)c4cc(-c5ccccc5)ccc4NC(=O)C3C2)CC1 (stereo not drawn)	Escherichia coli	–	WP2 uvrA	5.0 µg/plate, with rat liver S9	–	revertants per plate	41
[Cl-].[Cl-].[Pt+2].[Ru+2].c1ccc(-c2nc3cc4ccccc4cc3nc2-c2ccccn2)nc1.c1cnc2c(c1)ccc1cccnc12.c1cnc2c(c1)ccc1cccnc12	Danio rerio	–	embryos	45 µM, 0 h	–	survival rate	100%
COc1cccc(-c2n[nH]c(SCc3ccccn3)n2)c1OC	Salmonella typhimurium	Ames test, plate incorporation	TA100	1.0 mg/plate, without S9	–	revertant colonies per plate	105
Fc1ccc(C2=CCNCC2)cc1	Salmonella typhimurium	SOS/umu test	TA1535/pSK1002	0.063 mg/mL, 4 h, with S9, full range	–	survival	84.7%
CCOC(=O)C1=C(CN2CCC(C(=O)Nc3ccc(B(O)O)cc3)C2)NC(c2nccs2)=NC1c1ccc(F)cc1Br (stereo not drawn)	hepatitis B virus	–	HepDES19	–	baseline: CC50 over EC50	selectivity index	54
[Cl-].[Cl-].[Pt+2].[Ru+2].c1ccc(-c2nc3ccccc3nc2-c2ccccn2)nc1.c1cnc2c(c1)ccc1cccnc12.c1cnc2c(c1)ccc1cccnc12	Danio rerio	–	embryos	30 µM, 96 h	–	hatching rate	50 ± 5.4%
CCOC(=O)C1=C(CN2CCC[C@@H]2C(=O)Nc2ccc(B(O)O)cc2)NC(c2nccs2)=N[C@H]1c1ccc(F)cc1Br	hepatitis B virus	–	HePAD38	–	baseline: CC50 over EC50	selectivity index	26500
CCCCN(CCCC)CCCNC(=O)c1cc(-c2ccc(Cl)s2)nc2ccccc12	Vero-E6	CellTiter-Glo ATP	–	72 h, retest 8-point duplicates	baseline: DMSO 0%, hyamine -100%, more negative, more toxic	maximum response	-12.5%
[Cl-].[Cl-].[Pt+2].[Ru+2].c1ccc(-c2nccnc2-c2ccccn2)nc1.c1cnc2c(c1)ccc1cccnc12.c1cnc2c(c1)ccc1cccnc12	Danio rerio	–	embryos	60 µM, 48 h	–	hatching rate	6.67 ± 3.5%
CCOC(=O)C1=C(CN2CCC(C(=O)Nc3cccc(B4OC(C)(C)C(C)(C)O4)c3)C2)NC(c2nccs2)=NC1c1ccc(F)cc1Br (stereo not drawn)	hepatitis B virus	–	HepDES19	–	baseline: CC50 over EC50	selectivity index	38
CNC(=O)c1c(N(C)N=O)ncn1C	Salmonella typhimurium	plate incorporation	TA100, water	5000 µg/plate, without S9	–	revertant colonies per plate	192 ± 19
O=[N+]([O-])c1ccc(N2CCN(CCC(O)c3ccc(F)cc3)CC2)c(C(F)(F)F)c1 (stereo not drawn)	Salmonella typhimurium	genotoxicity, SOS/umu test	TA1535/pSK1002	0.016 mg/mL, 4 h, without S9, full range	–	induction factor	1.7
CCOC(=O)C1=C(CN2CCC(C(=O)Nc3ccccc3B(O)O)C2)NC(c2nccs2)=NC1c1ccc(F)cc1Br (stereo not drawn)	hepatitis B virus	–	HepDES19	–	baseline: CC50 over EC50	selectivity index	> 25
OC(CCN1CC=C(c2ccc(F)cc2)CC1)c1ccc(F)c2ccccc12 (stereo not drawn)	Salmonella typhimurium	SOS/umu test	TA1535/pSK1002	0.25 mg/mL, 4 h, with S9, lower range	–	survival	151%
Cc1noc2c(NC3CCOCC3)cc(-c3cccc(C(F)(F)F)c3)nc12	Vero-E6	CellTiter-Glo ATP	–	72 h, first round 5-point	baseline: DMSO 0%, hyamine -100%, more negative, more toxic	maximum response	-22.9%
O=[N+]([O-])c1ccc(N2CCC(NCCC(O)c3ccc(F)c4ccccc34)CC2)c(C(F)(F)F)c1 (stereo not drawn)	Salmonella typhimurium	genotoxicity, SOS/umu test	TA1535/pSK1002	0.004 mg/mL, 4 h, with S9, full range	–	induction factor	0.86
CCOC(=O)C1=C(CN2CCC[C@@H]2C(=O)Nc2cccc(B(O)O)c2)NC(c2nccs2)=N[C@H]1c1ccc(F)cc1Br	hepatitis B virus	–	HepDES19	–	baseline: CC50 over EC50	selectivity index	255
Cc1cc(C(=O)NC(C)(C)COc2cccc3c2C(N)=NS(=O)(=O)N3)cc(C)n1	Escherichia coli	Ames test, confirmatory	WP2 uvrA	100 µg/plate, with: rat liver S9	baseline: solvent control	revertant ratio	1.2
